Measured values pooled from the literature.
Compare with care: the assays were run in different laboratories. Numbers after ± are the reported error.

SMILES | cell line | test | conditions | how to read | EC50 [nM]
Cc1cc(C)nc(NC(=S)N2CCN(c3ccncc3)CC2)c1 | MDA-MB-468 (high PHGDH) | cell viability, CellTiter-Glo | 4 days | – | > 100000
CC(C)(C)c1cc(-c2ccc3cccnc3n2)nc(-c2ccc3cccnc3n2)c1.COc1ccncc1.[Cl-].[Cl-].[Ru+2].c1ccc2cc3nc4c5cccnc5c5ncccc5c4nc3cc2c1 | B16-F10 | resazurin | together with: light 633 nm, 20 mW, 100 J/cm2 | – | 2120 ± 100
NC(=O)c1nnn(Cc2cc(Cl)c(C(=O)c3ccc(Cl)cc3)c(Cl)c2)c1N | human iPSC-derived cardiomyocytes | calcium transient peak spacing, calcium transient | 15 min | – | 2100
C=C(NC(=O)c1csc(-c2ccc(NC(=O)CCCCCBr)cc2)n1)C(=O)NC(=C)C(=O)OC | NCI-H358 | cell viability | – | – | 2100
[Cl-].[Cl-].[Ru+2].c1cc(-c2ccc3cccnc3n2)nc(-c2ccc3cccnc3n2)c1.c1ccc2cc3nc4c5cccnc5c5ncccc5c4nc3cc2c1 | B16-F10 | resazurin | together with: light 733 nm, 9 mW, 100 J/cm2 | – | 54100
CC(C)c1ccc(N(C)c2ccc3c(c2)OCC[C@H]3CNc2cnccc2C(=O)O)cc1 | HCC1937 | apoptosis, refers to: caspase-3/7 | 72 h | relative to: panobinostat | > 100000
CC(C)C[C@@H](/C=C/CC(=O)N1CCC[C@H]1C(=O)N[C@H](C(=O)N[C@@H](CCCNC(=O)OCc1ccccc1)C(=O)NC1CC(C)(C)N([O])C(C)(C)C1)C(C)C)NC(=O)OC(C)(C)C | BJeLR | protection from ferroptosis, PrestoBlue | 24 h, together with: erastin 10 µM | – | 368
CC(=O)N[C@@H](CC1CCCCC1)C(=O)N[C@H]1CSSC[C@@H](C(=O)N[C@@H](CCCNC(=N)N)C(N)=O)NC(=O)[C@H](CC2CCCCC2)NC(=O)[C@H](CCCNC(=N)N)NC(=O)[C@H](CCCNC(=N)N)NC(=O)[C@H](CC2CCCCC2)NC(=O)[C@H](CC(C)C)NC(=O)[C@H](CCCNC(=N)N)NC(=O)[C@@H](NC(=O)[C@H](CC2CCCCC2)NC(=O)c2ccc3c(c2)C(=O)OC32c3ccc(N(C)C)cc3Oc3cc(N(C)C)ccc32)CSSC[C@@H](C(=O)N[C@@H](CCCNC(=N)N)C(N)=O)NC(=O)[C@H](CC2CCCCC2)NC(=O)[C@H](CCCNC(=N)N)NC(=O)[C@H](CCCNC(=N)N)NC(=O)[C@H](CC2CCCCC2)NC(=O)[C@H](CC(C)C)NC(=O)[C@H](CCCNC(=N)N)NC1=O | human tubular epithelial cells | cell penetration, flow cytometry | 3 h | – | 20
O=C(Nc1ccc(C(F)F)cc1)[C@H](CC1CCCCC1)Nc1nn2c(=O)ccnc2s1 | K562 p21-reporter | p21 reporter gene, activator | – | – | 130
CC(C)C[C@@H](/C=C/[C@H](Cc1ccccc1)C(=O)N1CCC[C@H]1C(=O)N[C@H](C(=O)N[C@@H](CCCNC(=O)OCc1ccccc1)C(=O)NC1CC(C)(C)N([O])C(C)(C)C1)C(C)C)NC(=O)OCC[S+]([O-])CC1(C)COC1 (stereo partly drawn) | BJeLR | protection from ferroptosis, PrestoBlue | 24 h, together with: erastin 10 µM | – | 2890
C=C(NC(=O)c1csc(-c2cccnc2)n1)C(=O)NC(=C)C(=O)OC | OCI | cell viability | – | – | 1200
Cc1nc(NCCOCCOCCNc2ncc(C(=O)NC3=NN(c4ccc(Cl)c(Cl)c4)CC3)c(C)n2)ncc1C(=O)NC1=NN(c2ccc(Cl)c(Cl)c2)CC1 | KYO1 | cell growth or viability, ATP luminescence | 72 h | – | 40
